# Published values collected from several papers.
# Numbered parts are unrelated; each lists some results of a single study. Positions count from the first letter of the parent shown.
# UniProt Q00526, sequence (whole entry, looked up): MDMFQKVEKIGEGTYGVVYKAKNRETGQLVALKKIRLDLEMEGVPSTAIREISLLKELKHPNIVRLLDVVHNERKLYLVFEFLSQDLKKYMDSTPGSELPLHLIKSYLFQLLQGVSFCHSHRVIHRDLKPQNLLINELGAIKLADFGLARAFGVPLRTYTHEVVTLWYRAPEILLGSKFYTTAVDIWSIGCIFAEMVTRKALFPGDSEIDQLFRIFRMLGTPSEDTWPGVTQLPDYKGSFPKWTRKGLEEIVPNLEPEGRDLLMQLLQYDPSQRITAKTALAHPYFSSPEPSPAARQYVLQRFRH
# UniProt Q9NR20, sequence (whole entry, looked up): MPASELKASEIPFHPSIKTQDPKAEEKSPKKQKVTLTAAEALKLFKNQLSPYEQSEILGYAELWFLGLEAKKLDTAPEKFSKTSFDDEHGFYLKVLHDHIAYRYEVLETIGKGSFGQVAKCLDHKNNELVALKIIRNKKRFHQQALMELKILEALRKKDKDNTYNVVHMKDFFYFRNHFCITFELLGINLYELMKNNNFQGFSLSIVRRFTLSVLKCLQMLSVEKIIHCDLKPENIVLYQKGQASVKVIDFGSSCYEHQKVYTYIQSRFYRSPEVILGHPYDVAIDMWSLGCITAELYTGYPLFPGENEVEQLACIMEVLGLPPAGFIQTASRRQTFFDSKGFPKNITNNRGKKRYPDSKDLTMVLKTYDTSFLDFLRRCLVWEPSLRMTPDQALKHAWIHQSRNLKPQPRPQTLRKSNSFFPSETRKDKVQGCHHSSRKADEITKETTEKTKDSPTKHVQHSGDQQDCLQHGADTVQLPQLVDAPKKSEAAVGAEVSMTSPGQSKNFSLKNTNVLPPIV
# UniProt Q5VT25, sequence (whole entry, looked up): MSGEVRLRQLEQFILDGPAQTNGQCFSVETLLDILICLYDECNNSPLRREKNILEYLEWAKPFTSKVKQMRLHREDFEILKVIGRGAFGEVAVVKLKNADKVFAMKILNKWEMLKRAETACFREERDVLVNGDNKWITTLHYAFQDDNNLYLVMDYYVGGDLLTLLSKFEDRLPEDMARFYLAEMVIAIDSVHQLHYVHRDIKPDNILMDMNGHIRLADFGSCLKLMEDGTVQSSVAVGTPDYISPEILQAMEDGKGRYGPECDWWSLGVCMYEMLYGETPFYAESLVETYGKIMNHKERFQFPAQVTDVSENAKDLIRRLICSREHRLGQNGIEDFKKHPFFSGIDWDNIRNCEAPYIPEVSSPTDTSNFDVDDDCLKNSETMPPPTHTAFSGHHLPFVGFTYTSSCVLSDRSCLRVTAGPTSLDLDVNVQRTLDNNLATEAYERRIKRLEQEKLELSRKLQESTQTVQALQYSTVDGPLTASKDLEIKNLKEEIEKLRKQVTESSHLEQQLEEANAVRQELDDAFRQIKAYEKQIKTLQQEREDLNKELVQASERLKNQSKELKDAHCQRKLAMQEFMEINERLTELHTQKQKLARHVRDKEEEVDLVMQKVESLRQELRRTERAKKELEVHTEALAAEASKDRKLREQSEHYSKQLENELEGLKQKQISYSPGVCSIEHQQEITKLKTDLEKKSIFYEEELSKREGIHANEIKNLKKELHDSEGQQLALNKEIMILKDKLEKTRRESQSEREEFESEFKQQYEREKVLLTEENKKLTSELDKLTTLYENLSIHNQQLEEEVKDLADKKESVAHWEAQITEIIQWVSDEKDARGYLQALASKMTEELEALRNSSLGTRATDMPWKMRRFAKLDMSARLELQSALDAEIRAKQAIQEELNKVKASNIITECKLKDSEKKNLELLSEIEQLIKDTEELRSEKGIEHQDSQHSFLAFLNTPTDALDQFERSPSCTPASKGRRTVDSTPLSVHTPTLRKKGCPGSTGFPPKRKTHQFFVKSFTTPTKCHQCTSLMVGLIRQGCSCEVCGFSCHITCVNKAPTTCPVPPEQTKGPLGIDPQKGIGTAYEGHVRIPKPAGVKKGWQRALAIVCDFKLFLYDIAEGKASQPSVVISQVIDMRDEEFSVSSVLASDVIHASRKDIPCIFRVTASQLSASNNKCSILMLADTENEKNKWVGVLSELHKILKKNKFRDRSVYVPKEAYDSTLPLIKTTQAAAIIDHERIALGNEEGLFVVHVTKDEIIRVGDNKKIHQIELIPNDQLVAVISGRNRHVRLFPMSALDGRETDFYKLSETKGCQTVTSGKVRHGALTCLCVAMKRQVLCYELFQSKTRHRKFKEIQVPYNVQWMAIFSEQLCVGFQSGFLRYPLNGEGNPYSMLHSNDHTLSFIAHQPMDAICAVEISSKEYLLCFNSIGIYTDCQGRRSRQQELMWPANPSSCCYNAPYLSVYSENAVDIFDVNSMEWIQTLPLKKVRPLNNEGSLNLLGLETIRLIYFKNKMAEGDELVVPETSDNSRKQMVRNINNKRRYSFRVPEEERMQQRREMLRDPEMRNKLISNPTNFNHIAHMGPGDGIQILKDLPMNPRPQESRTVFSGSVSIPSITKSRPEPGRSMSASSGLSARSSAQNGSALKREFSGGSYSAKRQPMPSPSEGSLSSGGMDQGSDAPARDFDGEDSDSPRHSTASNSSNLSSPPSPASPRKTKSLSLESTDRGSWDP
# UniProt O43318, sequence (whole entry, looked up): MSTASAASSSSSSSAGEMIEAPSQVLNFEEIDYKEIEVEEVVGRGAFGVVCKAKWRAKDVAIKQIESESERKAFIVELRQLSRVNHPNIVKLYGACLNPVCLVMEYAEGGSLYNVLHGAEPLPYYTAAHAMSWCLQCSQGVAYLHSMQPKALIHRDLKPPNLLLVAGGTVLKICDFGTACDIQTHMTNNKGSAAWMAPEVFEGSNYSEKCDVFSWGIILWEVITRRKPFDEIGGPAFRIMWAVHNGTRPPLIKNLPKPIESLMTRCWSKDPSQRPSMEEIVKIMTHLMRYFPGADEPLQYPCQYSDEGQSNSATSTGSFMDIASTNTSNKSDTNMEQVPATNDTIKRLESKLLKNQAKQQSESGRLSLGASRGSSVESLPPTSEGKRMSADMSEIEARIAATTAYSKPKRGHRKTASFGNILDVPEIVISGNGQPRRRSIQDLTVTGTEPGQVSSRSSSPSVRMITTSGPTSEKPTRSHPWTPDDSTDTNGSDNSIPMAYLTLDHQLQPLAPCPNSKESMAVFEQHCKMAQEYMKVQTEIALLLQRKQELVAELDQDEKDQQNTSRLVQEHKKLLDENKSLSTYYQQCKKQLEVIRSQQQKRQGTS
# UniProt P51956, sequence (whole entry, looked up): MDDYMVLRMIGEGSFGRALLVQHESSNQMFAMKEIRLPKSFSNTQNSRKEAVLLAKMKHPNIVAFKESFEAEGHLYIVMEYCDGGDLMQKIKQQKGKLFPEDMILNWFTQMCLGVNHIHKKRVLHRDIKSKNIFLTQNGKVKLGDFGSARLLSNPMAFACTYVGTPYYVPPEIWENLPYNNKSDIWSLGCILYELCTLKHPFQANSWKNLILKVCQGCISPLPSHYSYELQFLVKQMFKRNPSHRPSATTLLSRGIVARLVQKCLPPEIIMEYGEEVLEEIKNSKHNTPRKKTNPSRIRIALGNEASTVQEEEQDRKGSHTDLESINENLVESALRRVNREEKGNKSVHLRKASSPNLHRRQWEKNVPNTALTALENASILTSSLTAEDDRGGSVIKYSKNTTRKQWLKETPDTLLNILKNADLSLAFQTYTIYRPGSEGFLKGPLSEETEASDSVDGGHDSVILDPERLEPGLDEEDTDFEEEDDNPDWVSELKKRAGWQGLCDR
# UniProt P10398, sequence (whole entry, looked up): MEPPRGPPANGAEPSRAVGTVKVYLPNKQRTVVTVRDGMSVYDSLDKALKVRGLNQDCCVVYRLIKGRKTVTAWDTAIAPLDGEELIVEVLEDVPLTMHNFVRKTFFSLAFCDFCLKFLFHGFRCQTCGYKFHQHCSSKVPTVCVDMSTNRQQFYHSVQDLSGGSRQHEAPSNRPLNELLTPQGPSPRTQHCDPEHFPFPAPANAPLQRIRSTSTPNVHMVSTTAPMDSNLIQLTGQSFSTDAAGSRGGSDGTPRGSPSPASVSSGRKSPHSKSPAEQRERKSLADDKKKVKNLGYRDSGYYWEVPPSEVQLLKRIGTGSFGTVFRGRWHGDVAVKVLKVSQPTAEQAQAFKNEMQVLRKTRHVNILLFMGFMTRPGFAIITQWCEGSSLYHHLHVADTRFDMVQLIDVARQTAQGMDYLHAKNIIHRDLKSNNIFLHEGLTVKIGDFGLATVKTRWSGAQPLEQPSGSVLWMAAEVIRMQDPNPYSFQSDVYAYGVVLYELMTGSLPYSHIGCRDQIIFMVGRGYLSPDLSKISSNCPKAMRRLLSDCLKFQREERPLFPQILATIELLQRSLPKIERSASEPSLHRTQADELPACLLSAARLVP
# UniProt P68400, sequence (whole entry, looked up): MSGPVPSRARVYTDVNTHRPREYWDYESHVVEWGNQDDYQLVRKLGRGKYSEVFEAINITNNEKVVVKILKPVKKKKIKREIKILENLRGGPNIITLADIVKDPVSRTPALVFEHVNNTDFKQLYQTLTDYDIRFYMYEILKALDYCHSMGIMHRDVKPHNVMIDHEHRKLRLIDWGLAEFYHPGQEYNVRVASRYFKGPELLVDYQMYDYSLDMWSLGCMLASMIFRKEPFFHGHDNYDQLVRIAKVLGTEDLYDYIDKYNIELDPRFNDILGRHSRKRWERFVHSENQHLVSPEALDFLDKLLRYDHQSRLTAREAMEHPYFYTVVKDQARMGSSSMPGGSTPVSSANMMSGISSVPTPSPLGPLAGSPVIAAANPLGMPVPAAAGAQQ
# UniProt Q16644, sequence (whole entry, looked up): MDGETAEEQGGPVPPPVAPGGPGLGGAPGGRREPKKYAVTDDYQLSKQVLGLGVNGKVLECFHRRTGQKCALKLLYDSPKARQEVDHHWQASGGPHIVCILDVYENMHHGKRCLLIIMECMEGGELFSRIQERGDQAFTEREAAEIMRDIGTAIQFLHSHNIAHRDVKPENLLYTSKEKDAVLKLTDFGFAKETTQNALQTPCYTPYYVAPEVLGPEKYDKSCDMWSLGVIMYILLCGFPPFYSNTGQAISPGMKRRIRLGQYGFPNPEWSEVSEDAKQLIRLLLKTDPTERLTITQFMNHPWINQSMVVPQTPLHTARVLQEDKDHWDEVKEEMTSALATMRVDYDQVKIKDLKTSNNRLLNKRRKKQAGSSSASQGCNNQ

# Sample 1
# Organism: Sarcocystis neurona
# Effect on: parasite growth
# Concentration: concentration not given
# Notes: second screen
# Baseline: untreated
Structure (SMILES),log2 fold change
COc1cc(N)c(Cl)cc1C(=O)NC1CN2CCC1CC2.Cl (centres unmarked),0.35
COc1ccc(CCN)cc1OC,0.15
C[N+]1(C)CCN(c2ccccc2)CC1.[I-],0.2
COC(=O)N1CCN(C(=O)Cc2ccc(Cl)c(Cl)c2)C(CN2CCCC2)C1.O=C(O)/C=C/C(=O)O (centres unmarked),0.31
COc1ccc2[nH]cc(C3=CCNCC3)c2c1.O=C(O)CCC(=O)O,0.36
CC(NC(C)(C)C)C(=O)c1cccc(Cl)c1.Cl (centres unmarked),0.39
CCN(CC)CCOC(=O)C(O)(c1ccccc1)c1ccccc1.Cl,0.14

# Sample 2
# Target: CCNB2, cyclin fold, Cln2 fusion (human)
# Method: yeast growth competition, sequencing
# Sample: yeast
# Notes: weak parent motif
# Baseline: not given
# Reading: higher = stronger binding
# Starting sequence: viral docking peptide; KGVKRKLFAEDSS; partner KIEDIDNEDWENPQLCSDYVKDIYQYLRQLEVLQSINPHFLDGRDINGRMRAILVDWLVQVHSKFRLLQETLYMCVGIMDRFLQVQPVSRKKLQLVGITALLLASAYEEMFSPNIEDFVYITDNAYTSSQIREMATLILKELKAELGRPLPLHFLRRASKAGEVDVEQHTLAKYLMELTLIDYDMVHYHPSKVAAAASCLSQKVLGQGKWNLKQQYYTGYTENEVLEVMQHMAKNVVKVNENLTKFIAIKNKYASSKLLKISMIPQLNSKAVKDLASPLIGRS
Substitution,normalised enrichment score
KGVKAKAFAEDSS [R5A L7A],0.431
KGLKRKLFAEDSS [V3L],0.707
KGVKRKFFAEDSS [L7F],0.37
KGDKRKLFAEDSS [V3D],0.0483
KGVKAKLFAEDSS [R5A],0.628
KGVKRKLFAEPSS [D11P],0.626
KGVKRKYFAEDSS [L7Y],0.414
KGVKRKLFAHDSS [E10H],0.378

# Sample 3
# SMILES: O=c1[nH]c2ccccc2n1C1CCN(Cc2ccc(-c3[nH]c4cc5ncnc5cc4nc3-c3ccccc3)cc2)CC1
# Effect on: cell-free assay
# Concentration: 0.5 µM
target,remaining signal
"Dual serine/threonine and tyrosine protein kinase (DSTYK, Homo sapiens, UniProt Q6XUX3)",104%
"Serine/threonine-protein kinase WNK2 (WNK2, Homo sapiens, UniProt Q9Y3S1)",115%
"Testis-specific serine/threonine-protein kinase 2 (TSSK2, Homo sapiens, UniProt Q96PF2)",96.2%
"Cyclin-dependent kinase 3, with cyclin E (CDK3, Homo sapiens, UniProt Q00526)",97.5%
"Serine/threonine-protein kinase 3 (STK3, Homo sapiens, UniProt Q13188)",103%
"Mitogen-activated protein kinase kinase kinase 8 (MAP3K8, Homo sapiens, UniProt P41279)",95.2%
"Serine/threonine-protein kinase N2 (PKN2, Homo sapiens, UniProt Q16513)",73.2%
"Serine/threonine-protein kinase Nek3 (NEK3, Homo sapiens, UniProt P51956)",97.2%
"Cyclin-dependent kinase 5, with p35 (CDK5, Homo sapiens, UniProt Q00535)",91.9%
"Ribosomal protein S6 kinase beta-2 (RPS6KB2, Homo sapiens, UniProt Q9UBS0)",102%
"Tyrosine-protein kinase Fgr (FGR, Homo sapiens, UniProt P09769)",95.7%
"Dual specificity tyrosine-phosphorylation-regulated kinase 4 (DYRK4, Homo sapiens, UniProt Q9NR20)",109%
"TGF-beta receptor type-1 (TGFBR1, Homo sapiens, UniProt P36897)",102%
"Serine/threonine-protein kinase Nek11 (NEK11, Homo sapiens, UniProt Q8NG66)",86.4%
"Serine/threonine-protein kinase VRK1 (VRK1, Homo sapiens, UniProt Q99986)",98.3%
"Mitogen-activated protein kinase kinase kinase 7 (MAP3K7, Homo sapiens, UniProt O43318)",84.1%
"Serine/threonine-protein kinase MRCK alpha (CDC42BPA, Homo sapiens, UniProt Q5VT25)",105%
"Cyclin-dependent kinase 9, with cyclin T1 (CDK9, Homo sapiens, UniProt P50750)",93.2%
"Serine/threonine-protein kinase ULK1 (ULK1, Homo sapiens, UniProt O75385)",96.7%
"Casein kinase II subunit alpha (CSNK2A1, Homo sapiens, UniProt P68400)",94.3%
"Beta-adrenergic receptor kinase 1 (GRK2, Homo sapiens, UniProt P25098)",95.3%
"MAP kinase-activated protein kinase 3 (MAPKAPK3, Homo sapiens, UniProt Q16644)",104%
"Serine/threonine-protein kinase A-Raf (ARAF, Homo sapiens, UniProt P10398)",99.2%
"Protein kinase C zeta type (PRKCZ, Homo sapiens, UniProt Q05513)",102%
"Protein kinase C gamma type (PRKCG, Homo sapiens, UniProt P05129)",92.2%

# Sample 4
# Target: HLA class I histocompatibility antigen, A alpha chain, allele A*80:01 (Homo sapiens, UniProt P04439)
# Effect on: peptide-MHC binding
# Molecule type: peptide
# Concentration: concentration not given
Molecule,binding
WTGMVDGWY,inactive
EMKEAFHGL,inactive
HTVGLGQGY,inactive
FVRSSPANF,inactive
TMGPHPAGV,inactive
EKLKKKSAF,inactive
APRRRDEEL,inactive
ILFDRLPIA,inactive

# Sample 5
# SMILES: C[C@H](NC(=O)Nc1cc2[nH]ncc2c(CO)n1)c1ccccn1
# Effect on: cell-free assay
# Concentration: 10 µM
target,inhibition [%]
"Muscarinic acetylcholine receptor M3 (CHRM3, Homo sapiens, UniProt P20309)",-1.84
"5-hydroxytryptamine receptor 2A (HTR2A, Homo sapiens, UniProt P28223)",7.64
"Mu-type opioid receptor (OPRM1, Homo sapiens, UniProt P35372)",-6.59
"Delta-type opioid receptor (OPRD1, Homo sapiens, UniProt P41143)",2.71

# Other studies, line by line
Compound,host,sample,concentration,time,endpoint,result
C/C(NN1CCCCCC1)=C1\C(=O)N(C2CCCCC2)C(=O)N=C1O,human,microsomes or S9,2 µM,0.5 h,remaining compound,5.87%

# Some of these lines once more (sample 4):
Molecule,binding
ILFDRLPIA,inactive
WTGMVDGWY,inactive
HTVGLGQGY,inactive
EMKEAFHGL,inactive
EKLKKKSAF,inactive
TMGPHPAGV,inactive
FVRSSPANF,inactive
